Published values from different studies.
Each line is one published result; not all experiments were run side by side. “And” joins repeats or separate records; there may be more than shown. ± marks the error that the study gave.
Spike glycoprotein: Spike glycoprotein (Severe acute respiratory syndrome coronavirus 2, UniProt P0DTC2)
rep main protease: Replicase polyprotein 1ab, main protease (rep, Severe acute respiratory syndrome coronavirus 2, UniProt P0DTD1)

Under “lowest cytotoxic concentration”, CC(C)C[C@H](NC(=O)[C@H](CCCCN)NC(=O)[C@H](CCCCN)NC(=O)[C@H](CC(C)C)NC(=O)[C@H](CCCCN)NC(=O)[C@H](CC(C)C)NC(=O)[C@H](CC(C)C)NC(=O)CNC(=O)[C@H](CC(C)C)NC(=O)[C@H](CC(C)C)NC(=O)[C@H](CC(C)C)NC(=O)[C@H](CCCCN)NC(=O)[C@@H](N)CCCCN)C(=O)O is recorded as 256 µg/mL (HEK-293T; cell death; 24 h, 10% cell death).
The koff of C[C@@H]1O[C@@H](O[C@H]2C(=O)c3c(O)cc(O)cc3O[C@@H]2c2ccc(O)c(O)c2)[C@H](O)[C@H](O)[C@H]1O is reported as 0.00894 s⁻¹ (Spike glycoprotein; binding, BLI).
With COP(=S)(OC)Oc1ccc([N+](=O)[O-])c(C)c1 the Ki was 226 ± 43.2 µM (rat CYP3A; midazolam 4-hydroxylation, non-competitive inhibitor; rat Sprague-Dawley, liver microsomes; 10 min, pH 7.4, together with: midazolam 15 to 214 µM).
For CCc1c(C(=O)C(N)=O)c2c(OCC(=O)O)cccc2n1Cc1ccccc1, the remaining activity was 100% and 96.8% (Daboia russelii venom phospholipase A2; enzyme activity, inhibitor; PB population; 0.01 µM, together with: NOB substrate; reference: venom alone).
Cc1ccc(C(C)(C)C(=O)NC[C@H](NC(=O)c2cccnc2)c2ccc3ccccc3c2)cc1 has an inhibition of 10.6% (rep main protease; enzyme activity, inhibitor; 5 µM, mean of runs).
CN1c2ccccc2C(=O)Nc2cnc(Nc3ccc(N4CCC(O)CC4)cc3)nc21 gave an inhibition of 2.98% (rep main protease; viral replication, Gluc reporter; SARS-CoV-2; 20 µM).
With Nc1cc(OC2CN(C(=O)c3ccc(S(=O)(=O)F)cc3)C2)ccn1 the kinact was 5e-05 s⁻¹ (cya (Bacillus anthracis, UniProt P40136)).
The kon of Cc1cc(O[C@@H]2O[C@H](CO)[C@@H](O)[C@H](O)[C@H]2O)c2c(c1)C(=O)c1cc(O)cc(O)c1C2=O is reported as 191 M⁻¹ s⁻¹ (Spike glycoprotein; binding, biolayer interferometry).
With CCN(CC)CCCNC(=O)CSc1c2c(nc3cc(Cl)ccc13)CCCC2 the maximum response was 84% (SARS-CoV-2; cytopathic effect; USA_WA1/2020; round 2, 5-point).
With O=C(/C=C/c1ccc(O)c(O)c1/C=C/c1ccc(O)c(O)c1)O[C@H](Cc1ccc(O)c(O)c1)C(=O)O the koff was 0.0028 s⁻¹ (Spike glycoprotein; binding, BLI).
The inhibition of O=C1NCc2c1cccc2C(=O)N[C@H](CNC(=O)c1ccnc2[nH]ncc12)c1ccccc1 is reported as 10.3% (rep main protease; enzyme activity; 5 µM).
The inhibition of Nc1ccc2cc3ccc(N)cc3nc2c1 is reported as -5.7% (rep main protease; reporter gene (Gaussia luciferase), inhibitor; HEK293T; 20 µM).
O=C(CCn1cc[nH]c(=O)c1=O)N[C@@H]1CCCC12CN(C(=O)c1cccc3c1C(=O)NC3)C2 has an inhibition of 13.4% (rep main protease; enzyme activity, inhibitor; 5 µM, mean of runs).
The inhibition of C[C@H](NC(=O)CCC(F)(F)F)C(=O)N[C@@H]1C(=O)N(CCO)c2ncccc2-c2ccccc21 is reported as -0.325% (rep main protease; reporter gene (mKate2), inhibitor; 20 µM).
Cc1nc(C(=O)N2CC[C@@H]([C@@H]3CCCN3C(=O)c3cc(O)ccc3Cl)C2)cc(=O)[nH]1 gave an inhibition of 8.5% (rep main protease; enzyme activity, inhibitor; 5 µM, run 1).
CC[C@H](C)[C@H](NC(=O)[C@H](CC(C)C)NC(=O)[C@H](Cc1c[nH]c2ccccc12)NC(=O)[C@H](CCC(N)=O)NC(=O)[C@@H](NC(=O)[C@H](Cc1ccccc1)NC(=O)[C@H](C)NC(=O)[C@H](CCCCNC(=O)COCCOCCNC(=O)COCCOCCNC(=O)CC[C@H](NC(=O)CCCCCCCCCCCCCCCCCCC(=O)O)C(=O)O)NC(=O)[C@H](CCC(N)=O)NC(=O)[C@H](C)NC(=O)[C@@H](NC(=O)[C@H](CCCCN)NC(=O)[C@H](CC(=O)O)NC(=O)[C@H](CC(C)C)NC(=O)C(C)(C)NC(=O)[C@@H](NC(=O)[C@H](CO)NC(=O)[C@H](Cc1ccc(O)cc1)NC(=O)[C@H](CC(=O)O)NC(=O)[C@H](CO)NC(=O)[C@@H](NC(=O)[C@H](Cc1ccccc1)NC(=O)[C@@H](NC(=O)CNC(=O)[C@H](CCC(=O)O)NC(=O)C(C)(C)NC(=O)[C@@H](N)Cc1ccc(O)cc1)[C@@H](C)O)[C@@H](C)O)[C@@H](C)CC)[C@@H](C)CC)C(C)C)C(=O)N[C@@H](C)C(=O)NCC(=O)NCC(=O)N1CCC[C@H]1C(=O)N[C@@H](CO)C(=O)N[C@@H](CO)C(=O)NCC(=O)N[C@@H](C)C(=O)N1CCC[C@H]1C(=O)N1CCC[C@H]1C(=O)N1CCC[C@H]1C(=O)N[C@@H](CO)C(N)=O: “subjects with treatment-induced ADA” 14.3% (refers to: anti-drug antibodies; healthy human subjects; 5/5/8/10 mg escalating, titer ≥1:20).
Cn1cnc(Cn2c(=O)[nH]/c(=N\c3cc4cn(C)nc4cc3Cl)n(Cc3cc(F)c(F)cc3F)c2=O)n1: “patients with mild TEAE” 9.4% (human; oral, 375 mg).
O=S(=O)(F)Cc1ccccc1 gave an inhibition of 0.216% (rep main protease; reporter gene (Gaussia luciferase), inhibitor; 20 µM).
Nc1ncnc2c([C@@H]3N[C@H](CO)[C@@H](O)[C@H]3O)c[nH]c12 gave an inhibition of 0% (Western equine encephalitis virus; viral replication, inhibitor; Vero 76; 0.3 µM).

Excerpt of the above:
The inhibition of Nc1ccc2cc3ccc(N)cc3nc2c1 is reported as -5.7% (rep main protease; reporter gene (Gaussia luciferase), inhibitor; HEK293T; 20 µM).
O=C(CCn1cc[nH]c(=O)c1=O)N[C@@H]1CCCC12CN(C(=O)c1cccc3c1C(=O)NC3)C2 has an inhibition of 13.4% (rep main protease; enzyme activity, inhibitor; 5 µM, mean of runs).
The inhibition of C[C@H](NC(=O)CCC(F)(F)F)C(=O)N[C@@H]1C(=O)N(CCO)c2ncccc2-c2ccccc21 is reported as -0.325% (rep main protease; reporter gene (mKate2), inhibitor; 20 µM).
